Experimental data of several laboratories.
Lines come from different studies, so protocols differ. ≈ marks a conversion by molar mass, not a printed value.

`CCC/C(=C\C1=C(C(F)(F)F)C(=O)c2ccccc2C1=O)C(=O)N(CC)CC` gave a thermodynamic solubility of 4 µg/mL (FaSSIF; 24 h, 37 °C).
For `Cc1ccc(NCC(=O)NC2CCCCC2)cc1S(=O)(=O)N1CCOCC1`, the kinetic solubility was 20 µM (≈ 7.91 µg/mL) (water).
`COc1ccc(COC[C@](O)(CNCc2ccc(F)cc2)[C@@H]2CC[C@@H](C)C[C@H]2OCc2ccc(OC)cc2)cc1` gave a kinetic solubility of 124 µM (≈ 68.4 µg/mL) (PBS; 2 h, pH 7.4).
With `CCC/C(=C\C1=C(F)C(=O)c2ccccc2C1=O)C(=O)N(CC)CC` the thermodynamic solubility was 13 µg/mL (aqueous buffer; pH 6.8).
`C[C@@H]1CC[C@@H]([C@@](O)(COCc2ccccc2)Cn2cnc3ccccc32)[C@H](OCc2ccccc2)C1` has a kinetic solubility of 2.2 µM (≈ 1.07 µg/mL) (PBS; 2 h, pH 7.4).
The thermodynamic solubility of `CN1CC[C@H](c2c(O)cc(O)c3c(=O)cc(/C=C/c4c(Cl)cccc4Cl)oc23)[C@H](O)C1.O=C(O)CNC(=O)c1ccccc1` is reported as 360 µg/mL (water).
With `Cc1ccc(NCC(=O)N(C)c2ccc(F)c(Cl)c2)cc1S(=O)(=O)N1CCOCC1` the kinetic solubility was 180 µM (≈ 82.1 µg/mL) (water).
The kinetic solubility of `C[C@@H]1CC[C@@H]([C@](O)(CNCc2ccc(F)cc2)COCc2ccccc2)[C@H](OCc2ccccc2)C1` is reported as 1.1 µM (≈ 0.541 µg/mL) (PBS; 2 h, pH 7.4).
`Cc1ccc(NCC(=O)Nc2ccon2)cc1S(=O)(=O)N1CCOCC1` has a kinetic solubility of greater than 250 µM (water).
With `COc1ccccc1CNC[C@@](O)(COCc1ccccc1)[C@@H]1CC[C@@H](C)C[C@H]1OCc1ccccc1` the kinetic solubility was 1.6 µM (≈ 0.806 µg/mL) (PBS; 2 h, pH 7.4).
With `Cc1ccc(NCC(=O)Nc2ccc(F)c(Cl)c2)cc1C(=O)N1CCOCC1` the kinetic solubility was greater than 250 µM (water).
`CCC/C(=C\C1=C(OC)C(=O)c2ccccc2C1=O)C(=O)NOC` gave a thermodynamic solubility of 603 µg/mL (FeSSIF; 24 h, 37 °C).
For `CCN(CC)CC#CCNc1ccnc2cc(Cl)ccc12`, the thermodynamic solubility was 1210 µM (PBS; pH 7.4).

For quick reference, copied from above:
With `COc1ccccc1CNC[C@@](O)(COCc1ccccc1)[C@@H]1CC[C@@H](C)C[C@H]1OCc1ccccc1` the kinetic solubility was 1.6 µM (≈ 0.806 µg/mL) (PBS; 2 h, pH 7.4).
